Assay results gathered from unrelated publications.
Protocols differ between the studies behind these lines. Several values in a cell are separate wells, animals, samples, runs or records.

SMILES = COc1ccc2c(c1)CN(C(=O)CCN1CCC(Cc3ccccc3)CC1)CCS2; test system = paroxysmal AF patients; setting = oral, 540 mg, 0 min; quantity = plasma concentration; value = 0 µg/mL
SMILES = C=C[C@]1(C)C[C@@H](OC(=O)CSc2ccc(NC(=O)c3ccco3)cc2)[C@]2(C)[C@H](C)CC[C@]3(CCC(=O)[C@H]32)[C@@H](C)[C@@H]1O; test system = Mycoplasma gallisepticum-infected chickens, plasma; setting = intramuscular, 40 mg/kg, 0.083 h; quantity = plasma concentration; value = 4.08 µg/mL and 3.96 µg/mL and 4.8 µg/mL and 4.68 µg/mL and 3.57 µg/mL and 3.47 µg/mL and 5.04 µg/mL
SMILES = COc1ccc2cc3[n+](cc2c1OCCCOC(=O)c1cscn1)CCc1cc2c(cc1-3)OCO2; test system = hyperlipidemic hamster; setting = dose not given, 3 weeks; quantity = plasma ALT reduction; value = 43.8%
SMILES = C[C@@H](CO)NC(=O)c1cc(-c2ccc(Cl)cc2)nn(-c2cnn(C)c2)c1=O; test system = rat plasma; setting = up to 2 h, 37 °C; quantity = plasma stability; value = stable
SMILES = CC(C)(C)n1ncc2c(=O)n(Cc3cccc(F)c3)c(NCc3ccc(F)cn3)nc21; test system = human plasma; quantity = plasma protein binding; value = 99%
SMILES = CC(=O)N[C@H](CC(=O)O)C(=O)N[C@H](Cc1c[nH]c2ccccc12)C(=O)N[C@H](Cc1ccccc1)C(=O)N[C@H](CCCCN)C(=O)N[C@H](C)C(=O)N[C@H](Cc1ccccc1)C(=O)N[C@H](Cc1ccc(O)cc1)C(=O)N[C@H](CC(=O)O)C(=O)N[C@H](CCCCN)C(=O)N[C@@H](C(=O)N[C@H](C)C(=O)N[C@H](CCC(=O)O)C(=O)N[C@H](CCCCN)C(=O)N[C@H](Cc1ccccc1)C(=O)N[C@H](CCCCN)C(=O)N[C@H](CCC(=O)O)C(=O)N[C@H](C)C(=O)N[C@H](Cc1ccccc1)C(N)=O)C(C)C; test system = human, plasma; setting = oral, dose not given, 4 h post-dose, day 13; quantity = plasma concentration; value = 0.0756 µg/mL
SMILES = Cc1cccc(Cn2ncc3c4cc(F)c(CN(C)C)cc4n(C)c3c2=O)n1; test system = Dutch-belted rabbit, plasma; setting = intravitreal, 1 µM vitreous, 0.04 days; quantity = plasma concentration; value = not detected
SMILES = OB1c2sccc2C=NN1Cc1ccccc1; test = HPLC; test system = human plasma; setting = 400 µM, 9 h, 37 °C; quantity = plasma stability; value = stable

Some of these lines once more:
SMILES = CC(C)(C)n1ncc2c(=O)n(Cc3cccc(F)c3)c(NCc3ccc(F)cn3)nc21; test system = human plasma; quantity = plasma protein binding; value = 99%
